# Measured values of several laboratories.
# A part holds a random share of what one study measured. Positions count from the first letter of the parent shown.
# Sequence of UniProt Q8IW41 (whole entry, looked up): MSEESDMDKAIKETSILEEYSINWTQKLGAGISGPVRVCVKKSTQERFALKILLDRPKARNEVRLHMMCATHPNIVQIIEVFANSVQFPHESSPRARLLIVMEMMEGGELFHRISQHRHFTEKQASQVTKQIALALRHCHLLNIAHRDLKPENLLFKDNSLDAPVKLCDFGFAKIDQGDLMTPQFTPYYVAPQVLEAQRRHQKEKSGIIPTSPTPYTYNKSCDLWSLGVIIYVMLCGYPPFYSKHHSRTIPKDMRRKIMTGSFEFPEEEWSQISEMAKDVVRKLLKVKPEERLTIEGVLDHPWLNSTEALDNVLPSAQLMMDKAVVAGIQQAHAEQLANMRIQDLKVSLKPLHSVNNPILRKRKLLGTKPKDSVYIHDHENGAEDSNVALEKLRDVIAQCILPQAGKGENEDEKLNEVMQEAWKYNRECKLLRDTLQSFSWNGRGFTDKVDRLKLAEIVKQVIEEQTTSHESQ

# Block 1
# Target: UDP-N-acetylglucosamine--peptide N-acetylglucosaminyltransferase 110 kDa subunit (OGT, Homo sapiens, UniProt O15294)
# Effect on: binding
# Technique: phage display NGS
# Molecule type: peptide
# Tested at: concentration not given
# Notes: panning round 2
# Reference: input library
# Residues (O15294 1-1046): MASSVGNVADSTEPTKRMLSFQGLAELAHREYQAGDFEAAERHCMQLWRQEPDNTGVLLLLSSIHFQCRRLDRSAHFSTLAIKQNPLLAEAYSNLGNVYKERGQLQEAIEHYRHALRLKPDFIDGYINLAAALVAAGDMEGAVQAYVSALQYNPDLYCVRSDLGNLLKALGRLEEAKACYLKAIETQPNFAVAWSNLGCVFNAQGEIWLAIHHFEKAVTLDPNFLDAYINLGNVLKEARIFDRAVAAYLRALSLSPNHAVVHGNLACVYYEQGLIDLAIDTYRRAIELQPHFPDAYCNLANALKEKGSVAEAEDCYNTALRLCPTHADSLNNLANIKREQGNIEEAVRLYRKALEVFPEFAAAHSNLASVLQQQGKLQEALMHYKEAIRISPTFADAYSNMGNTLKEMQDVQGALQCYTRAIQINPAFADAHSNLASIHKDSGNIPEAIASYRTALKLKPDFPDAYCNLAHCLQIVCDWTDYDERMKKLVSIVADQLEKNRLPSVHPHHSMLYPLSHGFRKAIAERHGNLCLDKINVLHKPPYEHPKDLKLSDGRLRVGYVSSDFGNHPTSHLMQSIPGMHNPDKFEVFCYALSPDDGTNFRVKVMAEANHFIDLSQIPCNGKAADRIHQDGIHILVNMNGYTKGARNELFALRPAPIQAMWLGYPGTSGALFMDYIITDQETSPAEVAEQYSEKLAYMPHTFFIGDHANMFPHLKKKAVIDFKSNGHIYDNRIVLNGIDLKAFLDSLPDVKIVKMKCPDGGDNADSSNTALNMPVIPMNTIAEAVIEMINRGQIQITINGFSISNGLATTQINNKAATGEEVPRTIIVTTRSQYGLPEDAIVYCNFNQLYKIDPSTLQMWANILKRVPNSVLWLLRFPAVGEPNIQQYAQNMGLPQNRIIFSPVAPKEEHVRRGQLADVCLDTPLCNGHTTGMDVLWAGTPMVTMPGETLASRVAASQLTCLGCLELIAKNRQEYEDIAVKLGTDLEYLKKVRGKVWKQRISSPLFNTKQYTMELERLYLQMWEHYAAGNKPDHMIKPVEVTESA
Molecule,enrichment fold change
GMTHQYHLHHDSGFQ,6.2
HPWPYIMEHEHHHYK,7.15
MHHAFEGDHVWMHAG,4.14
LPIPKFLPIYQLKLE,6.66
KDIRQDYLPFYQITV,28.2
QVFWPQYQINIPKLN,14.2
HDPYHYRYSPQHNSY,6.21
YETMDVFMPQYKIIA,9.17

# Block 2
# Target: CCNB3, cyclin fold, Cln2 fusion (human)
# Technique: yeast growth competition, sequencing
# Medium: yeast
# Notes: strong parent motif
# Reference: not given
# Direction: higher = stronger binding
# Starting sequence: viral docking peptide; TSVRRALFTGGSD; partner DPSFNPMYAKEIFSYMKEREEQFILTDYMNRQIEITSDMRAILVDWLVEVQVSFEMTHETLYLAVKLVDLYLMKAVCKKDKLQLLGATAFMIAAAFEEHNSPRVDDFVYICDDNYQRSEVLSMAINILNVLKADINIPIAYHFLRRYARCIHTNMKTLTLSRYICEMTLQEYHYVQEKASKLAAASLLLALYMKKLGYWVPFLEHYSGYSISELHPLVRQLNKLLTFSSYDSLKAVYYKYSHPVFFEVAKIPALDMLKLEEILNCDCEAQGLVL
Substitution,normalised enrichment score
V3D,0.00322
S12I,1.62
R5V,0.167
L7S,-0.247
A6Q,2.55
A6R,3.93
S2A,1.1
T9Q,1.45

# Block 3
# Target: tungstate, free oxyanion
# Technique: microfluidic competitive inhibition
# Medium: in vitro, cell-free expressed
# Tested at: not given
# Notes: derived from inhibition constants, unchanged parent 2230 nM
# Direction: lower = stronger binding
# Starting sequence: PafA, mature enzyme, eGFP fusion (Elizabethkingia meningoseptica, UniProt Q9KJX5); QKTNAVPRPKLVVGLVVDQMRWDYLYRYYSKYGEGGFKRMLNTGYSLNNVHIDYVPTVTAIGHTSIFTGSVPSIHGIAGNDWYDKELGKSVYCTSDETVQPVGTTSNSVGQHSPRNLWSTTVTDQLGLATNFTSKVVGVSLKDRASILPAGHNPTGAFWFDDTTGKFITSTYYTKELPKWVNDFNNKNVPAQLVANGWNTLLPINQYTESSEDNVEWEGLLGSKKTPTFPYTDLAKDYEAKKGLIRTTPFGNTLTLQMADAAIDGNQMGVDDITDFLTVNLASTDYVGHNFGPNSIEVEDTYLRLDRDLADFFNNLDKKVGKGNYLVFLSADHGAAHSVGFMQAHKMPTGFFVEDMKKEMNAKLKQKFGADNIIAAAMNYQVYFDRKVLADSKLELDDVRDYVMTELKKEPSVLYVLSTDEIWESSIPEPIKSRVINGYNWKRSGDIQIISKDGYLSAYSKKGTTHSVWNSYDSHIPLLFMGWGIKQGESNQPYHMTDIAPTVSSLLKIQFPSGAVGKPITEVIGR
Substitution,oxyanion analog dissociation constant [µM]
T200G,2.15
D260V,2.2
E489V,2.27
P348V,2.14
K346V,2.11
L193G,2.12
L177V,2.46
F160V,2.29

# Mixed results
Structure (SMILES),target,assay,endpoint,value
COC(=O)c1cc(N(C)C(=O)c2ccn3ncc(-c4ccc(C(=O)O)cc4)c3c2)ccc1Cl,"MAP kinase-activated protein kinase 5 (MAPKAPK5, Homo sapiens, UniProt Q8IW41)","enzyme activity, inhibitor",IC50,> 30 µM

# Repeated from above (block 3):
Substitution,oxyanion analog dissociation constant [µM]
L193G,2.12
L177V,2.46
F160V,2.29
